# Measurements collected from several papers.
# Every numbered part comes from another study and shows a few of its results, in no order. Positions count from the first letter of the parent shown.

# Set 1
# Target: CCNE1, cyclin fold, Cln2 fusion (human)
# Method: yeast growth competition, sequencing
# Medium: yeast
# Notes: weak parent motif
# Reference: not given
# Direction: higher = stronger binding
# Starting sequence: HASPIN docking peptide (human); ASLRSVLFGLMNS
Change,normalised enrichment score
L10A,1.04
V6A,0.765
N12A,1.32
R4A,0.0105
S13A,0.505
S5A,1.34

# Set 2
# Target: RING finger protein unkempt homolog, zinc fingers 1-6, GST-SBP tag (UNK, Homo sapiens, UniProt Q9C0B0, residues 30-357)
# Method: RNA Bind-n-Seq
# Molecule type: RNA
# Medium: in vitro
# Tested at: not given
# Notes: RNA with constant flanks, ends assumed
# Reference: input RNA pool
# Direction: higher = stronger binding
# Shared flanks, not repeated: GGGAGUUCUACAGUCCGACGAUC … CAACAGAGGAUUGAGCAUCA
# Target sequence (chain): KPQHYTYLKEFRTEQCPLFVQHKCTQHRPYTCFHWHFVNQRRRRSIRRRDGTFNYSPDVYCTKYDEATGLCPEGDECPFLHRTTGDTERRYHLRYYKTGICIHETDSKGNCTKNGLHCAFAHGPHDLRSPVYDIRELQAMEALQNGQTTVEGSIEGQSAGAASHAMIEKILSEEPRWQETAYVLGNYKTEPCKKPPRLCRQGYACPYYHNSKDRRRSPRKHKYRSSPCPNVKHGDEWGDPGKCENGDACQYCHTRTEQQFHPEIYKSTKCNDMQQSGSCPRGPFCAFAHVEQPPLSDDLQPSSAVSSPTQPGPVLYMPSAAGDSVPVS
Oligonucleotide,bound/input enrichment
GUAUCCAUGGGGCUUACAAGGAGCAUGCAAGUUGUCCCCUUGGACAAACAGAUCACAAUCACCGACCGUCCGAGCUUCAUCGUAUCUCCACUUAAUUCCUCCUCUGCGCUUGCUCUGCGA,0.0901 ratio
UGGUCAUUUAUAGCAAUUAGAGUGGGUUGCCCCUCUACUUCUCCCAAGAAGAAAUCCCAAACCGAUUCCUUUCAUGUCAGAUUAUACUGUUCUGAUUUUAUUUUCUAUUAUUUUUACAUA,5.79 ratio
AGUUCCAGAACCAGAAUCAGAAAUGAAGAUGAGACUACCAAGACGAGCCAAAACCGCAGCACCCGAAAAAAGUAAACUUAACCUUGCCCAAUUUCUCAAUGAAGAUCUAAGUUAGGAAAG,0.284 ratio
GAAGAAUUGUAUUUGCAACGGGUAGCAGAAUUGGACAAAAUUACUUAUGAAAGAGACAGUUUCCGACAGGCAUAUGAAGAUCUUCGGAAACAAAGGCUUAAUGAAUUUAUGGCAGGUUUU,0.364 ratio
AAGAUUGGGCUUAUUCAGUUUUGCUUAUCUGCUCCUAAAACAGAUAUGGAUAAUCAAACCGCCGUAUCUGACUAUGCCCAGAUGGAUCGAGUGCUUCGAGAGGAGAGAGCCUAUAUUUUA,0.206 ratio
CACUUUGGAGCCACCGACCUGGAUGUGGCCAACUUCUACGUGUCACAGCUGCAGACUCCCACCGGUGUGCAAGCAGAGGCGCUGCUCCGAUGUAGUGACAUUAUUUCAUAUACCUUCAAG,0.233 ratio
GAAACCACUUAUCCAAAUACUUACAUUUUUGACUUGUUUGGAGGUGUUGAUCUUCUUGCCGAAAUUCUUAUGAGGCCUACGAUCUCUAUCCGGGGACAGAAACUGAAAAUAAGUGAUGAA,0.567 ratio
AGCACUGAUCUGGCUGUAUACUGAUCCAUCACUAACCUGUUUUCUAGGACCCAGCGUAUGCCGCAUUUGUAUUGCAGUUUCCCUGGCUUACUUGUGUUUUGCACUGAUGAAUUUUGACAG,0.151 ratio

# Set 3
# Target: Activated CDC42 kinase 1 (TNK2, Homo sapiens, UniProt Q07912)
# Chain of UniProt Q07912 (whole entry, looked up): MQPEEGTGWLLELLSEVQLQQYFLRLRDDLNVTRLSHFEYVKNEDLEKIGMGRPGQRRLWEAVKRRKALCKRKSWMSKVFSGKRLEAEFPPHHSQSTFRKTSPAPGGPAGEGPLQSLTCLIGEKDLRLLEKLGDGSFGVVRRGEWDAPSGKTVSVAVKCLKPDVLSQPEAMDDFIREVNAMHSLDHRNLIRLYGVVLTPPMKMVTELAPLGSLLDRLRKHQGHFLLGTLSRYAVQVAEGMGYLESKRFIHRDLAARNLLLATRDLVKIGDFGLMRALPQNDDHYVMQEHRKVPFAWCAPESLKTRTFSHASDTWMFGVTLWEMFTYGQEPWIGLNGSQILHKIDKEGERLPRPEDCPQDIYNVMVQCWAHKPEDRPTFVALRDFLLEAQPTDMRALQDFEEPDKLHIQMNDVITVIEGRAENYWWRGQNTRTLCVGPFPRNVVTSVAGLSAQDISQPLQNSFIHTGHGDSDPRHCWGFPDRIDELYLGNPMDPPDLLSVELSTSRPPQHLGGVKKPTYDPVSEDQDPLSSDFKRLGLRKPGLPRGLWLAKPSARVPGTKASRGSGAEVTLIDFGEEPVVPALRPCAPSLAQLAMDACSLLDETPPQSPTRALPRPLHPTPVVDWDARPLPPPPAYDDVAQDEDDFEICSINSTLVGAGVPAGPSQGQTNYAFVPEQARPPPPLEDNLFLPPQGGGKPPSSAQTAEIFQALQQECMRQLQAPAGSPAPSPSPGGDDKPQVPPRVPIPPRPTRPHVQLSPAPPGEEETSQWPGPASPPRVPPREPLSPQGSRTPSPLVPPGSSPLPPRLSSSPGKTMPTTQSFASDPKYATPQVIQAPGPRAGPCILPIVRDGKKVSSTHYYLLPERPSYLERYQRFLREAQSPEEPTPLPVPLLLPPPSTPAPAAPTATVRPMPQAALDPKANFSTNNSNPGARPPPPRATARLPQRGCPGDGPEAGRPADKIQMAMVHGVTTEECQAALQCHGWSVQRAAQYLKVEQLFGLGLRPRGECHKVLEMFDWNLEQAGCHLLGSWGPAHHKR
# Observed: enzyme activity
# Action: inhibitor
# Tested at: 0.5 µM
# Reference: control
Structure (SMILES),remaining activity [%]
CCC(=O)Nc1ccc2ncnc(Nc3cccc(Br)c3)c2c1,93.5
CCOc1cc2ncnc(Nc3cccc(Br)c3)c2cc1OCC,58.8
Nc1[nH]nc2nnc(-c3c(-c4ccccc4)nn4ccccc34)cc12,82.7
Cc1nc(Nc2ncc(C(=O)Nc3c(C)cccc3Cl)s2)cc(N2CCN(CCO)CC2)n1,2.62

# Single results of other studies
SMILES,target,observed,method,tested at,endpoint,result
C[C@H](c1ccc(F)cc1)N(Cc1cccc(C(=O)O)c1)C(=O)c1cnc2ccccc2c1,"Epidermal growth factor receptor (EGFR, Homo sapiens, UniProt P00533, del747-750/T751S)",cell-free assay,competition with immobilised ligand,1 µM,remaining binding,100%

# Some of these lines once more (set 3):
Structure (SMILES),remaining activity [%]
CCOc1cc2ncnc(Nc3cccc(Br)c3)c2cc1OCC,58.8
Cc1nc(Nc2ncc(C(=O)Nc3c(C)cccc3Cl)s2)cc(N2CCN(CCO)CC2)n1,2.62
CCC(=O)Nc1ccc2ncnc(Nc3cccc(Br)c3)c2c1,93.5
